Measurements gathered from unrelated publications.
Parts stem from different laboratories: compare values within a part only. Substitutions count along the parent as printed.

Block 1
Target: Sal-like protein 4, full length isoform A (SALL4, Homo sapiens, UniProt Q9UJQ4, residues 1-1053)
UniProt Q9UJQ4, sequence (whole entry, looked up): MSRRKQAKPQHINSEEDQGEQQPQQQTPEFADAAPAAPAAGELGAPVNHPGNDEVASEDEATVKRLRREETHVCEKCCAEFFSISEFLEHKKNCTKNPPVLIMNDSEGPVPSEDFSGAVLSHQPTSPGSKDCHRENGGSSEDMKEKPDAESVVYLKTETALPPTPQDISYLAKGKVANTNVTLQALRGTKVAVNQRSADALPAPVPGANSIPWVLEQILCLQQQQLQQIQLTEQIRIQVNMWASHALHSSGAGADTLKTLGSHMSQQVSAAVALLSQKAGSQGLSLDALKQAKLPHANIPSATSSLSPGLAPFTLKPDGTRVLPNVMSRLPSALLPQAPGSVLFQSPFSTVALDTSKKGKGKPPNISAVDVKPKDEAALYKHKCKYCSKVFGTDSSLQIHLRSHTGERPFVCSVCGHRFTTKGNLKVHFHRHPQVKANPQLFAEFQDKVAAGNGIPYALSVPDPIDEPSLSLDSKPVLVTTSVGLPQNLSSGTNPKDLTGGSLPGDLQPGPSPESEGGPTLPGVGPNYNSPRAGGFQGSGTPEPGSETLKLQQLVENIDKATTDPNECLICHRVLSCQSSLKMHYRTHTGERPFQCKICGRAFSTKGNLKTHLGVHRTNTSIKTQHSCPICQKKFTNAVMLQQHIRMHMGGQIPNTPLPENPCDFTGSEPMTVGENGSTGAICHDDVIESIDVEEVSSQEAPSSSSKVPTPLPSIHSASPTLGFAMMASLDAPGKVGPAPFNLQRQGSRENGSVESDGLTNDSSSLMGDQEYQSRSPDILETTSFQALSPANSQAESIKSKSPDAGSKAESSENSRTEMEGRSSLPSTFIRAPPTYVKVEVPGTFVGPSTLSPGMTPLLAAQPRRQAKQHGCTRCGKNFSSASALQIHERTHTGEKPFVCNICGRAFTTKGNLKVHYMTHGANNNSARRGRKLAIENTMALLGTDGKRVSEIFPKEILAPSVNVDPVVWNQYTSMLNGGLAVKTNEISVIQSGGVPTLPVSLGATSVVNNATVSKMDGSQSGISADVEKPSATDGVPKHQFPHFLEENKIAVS
Method: universal PBM
Molecule type: double-stranded DNA, one strand shown
Sample: in vitro
Tested at: 600 nM
Notes: 8-mer, flanks averaged, mean of replicates
Direction: higher = stronger binding
| Oligonucleotide | E-score |
| --- | --- |
| CAGATGAG | -0.0222 |
| ATGGAACA | -0.000525 |
| GTACCGGA | -0.193 |
| TAAATAAA | 0.338 |
| ATGTTGGC | 0.0475 |
| AGAGCATG | -0.0881 |
| AAATATGC | 0.292 |
| ACACCAAC | -0.127 |
| TATCCTCA | 0.0617 |
| AAGCCCTC | -0.222 |
| GCCTGTCA | -0.201 |
| AGTTTGTA | 0.143 |
| CTGTTGAC | -0.0443 |
| AAGGAACT | 0.0313 |
| AACGTGAG | 0.0867 |
| CATGAACG | -0.0602 |
| CCATATTA | 0.368 |
| TCCATTAA | 0.251 |
| ACGACATC | -0.184 |
| GGTTTTCA | 0.186 |
| ACCGGCCT | -0.327 |
| CGTCACAG | 0.00686 |
| TCGGGGAA | -0.074 |
| ACGGCGCG | -0.201 |
| GAAAAAGC | 0.0153 |

Block 2
Target: ABI1, truncated, D143A, DHFR fusion (Arabidopsis thaliana)
Method: DHFR PCA, deep sequencing
Sample: yeast
Notes: methotrexate growth selection, single substitutions
With: (+)-ABA 4.8 µM
Baseline: wild-type fitted maximum
Direction: higher = stronger binding
Parent: PYL1, truncated, DHFR fusion (Arabidopsis thaliana); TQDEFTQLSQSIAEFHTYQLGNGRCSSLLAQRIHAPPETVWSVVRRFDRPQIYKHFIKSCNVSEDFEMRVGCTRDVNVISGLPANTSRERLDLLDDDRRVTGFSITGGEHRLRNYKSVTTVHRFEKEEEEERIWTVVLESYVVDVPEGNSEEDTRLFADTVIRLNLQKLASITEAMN
| Change | relative binding score |
| --- | --- |
| L156K | 21.1% |
| F47M | 8.46% |
| F15P | -18.3% |
| D97R | 64.1% |
| R88N | 63.6% |
| D3Y | 55.8% |
| V40F | -32.6% |
| D95G | -5.24% |
| V44W | 3.99% |
| Q10C | 61.1% |
| E4Y | 60.4% |
| R46P | -16% |
| R123K | 88.5% |

Block 3
Target: PABPC1L2, full length, GST fusion (mouse, UniProt A0ABA7IW68)
Method: RNAcompete
Molecule type: RNA
Sample: in vitro
Tested at: 20 nM
Notes: 7-mer, probes averaged, single round
Baseline: mean of 7-mers
Direction: higher = stronger binding
Residues (chain): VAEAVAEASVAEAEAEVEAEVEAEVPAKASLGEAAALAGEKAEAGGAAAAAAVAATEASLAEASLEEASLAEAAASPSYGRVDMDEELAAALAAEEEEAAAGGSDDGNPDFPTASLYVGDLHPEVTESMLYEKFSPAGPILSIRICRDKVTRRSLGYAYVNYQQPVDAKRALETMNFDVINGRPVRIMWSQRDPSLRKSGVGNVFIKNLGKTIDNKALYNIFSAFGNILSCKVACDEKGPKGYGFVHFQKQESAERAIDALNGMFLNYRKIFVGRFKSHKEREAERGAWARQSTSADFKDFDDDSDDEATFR
| Oligonucleotide | 7-mer Z-score |
| --- | --- |
| CAUUCGU | -0.208 |
| GAACUUU | -0.206 |
| UACGGUU | 0.0134 |
| AGAAUAU | -0.108 |
| AUCGGGC | 0.0478 |
| GGGGUAC | 0.0823 |
| GCUAAAA | 3.1 |
| GUACCUA | -0.246 |
| UAAUCGC | -0.258 |
| CGGAAUG | -0.0699 |
| AGGGCAG | 0.617 |
| UUUAUAA | 0.365 |
| GGAAAGC | 0.0714 |
| GUGGGGC | 0.425 |
| AUCCGUC | -0.362 |
| ACUCGGA | 0.0352 |
| AAGAGAA | 0.729 |
| CAUCUUU | -0.139 |
| GUCCUGA | -0.338 |
| CGCAGAG | -0.0482 |

Block 4
Target: CCNB2, cyclin fold, Cln2 fusion (human)
Method: yeast growth competition, sequencing
Sample: yeast
Notes: weak parent motif
Baseline: not given
Direction: higher = stronger binding
Parent: CDC25A docking peptide (human); PPHRRRLLFACSP
| Change | normalised enrichment score |
| --- | --- |
| PPHRRRELFACSP [L7E] | 0.161 |
| PPMRRRLLFACSP [H3M] | 0.538 |
| PPIRRRLLFACSP [H3I] | 0.46 |
| PPHRRRLLVACSP [F9V] | 0.538 |
| PPHRRRLLHACSP [F9H] | 0.508 |
| PPHRRRLLFACSC [P13C] | 0.623 |
| PPHRRRLLFAGSP [C11G] | 0.511 |
| PPHGRRLLFACSP [R4G] | 0.451 |
| PSHRRRLLFACSP [P2S] | 0.472 |
| PPHRLRLLFACSP [R5L] | 0.35 |
| PPHRRRLLFACQP [S12Q] | 0.315 |
| PPHRRRLLFACST [P13T] | 0.893 |
| IPHRRRLLFACSP [P1I] | 1.08 |
| PPHYRRLLFACSP [R4Y] | 0.187 |
| PPHDRRLLFACSP [R4D] | 0.402 |
| PPHRRLLLFACSP [R6L] | 0.443 |
| RPHRRRLLFACSP [P1R] | 0.638 |
| PPHRRRLEFACSP [L8E] | -0.0158 |
| PPHCRRLLFACSP [R4C] | 0.315 |
| PEHRRRLLFACSP [P2E] | 0.482 |
| PPHRRRLLFACGP [S12G] | 0.589 |
| PPHRARLLFACSP [R5A] | 0.739 |
| PPHRRNLLFACSP [R6N] | 0.742 |
| APHRRRLLFACSP [P1A] | 0.593 |
| PPHRRRVLFACSP [L7V] | 0.606 |

Block 5
Target: Ras GTPase-activating protein-binding protein 1, C-terminal RGG region (G3BP1, Homo sapiens, UniProt Q13283)
UniProt Q13283, sequence (whole entry, looked up): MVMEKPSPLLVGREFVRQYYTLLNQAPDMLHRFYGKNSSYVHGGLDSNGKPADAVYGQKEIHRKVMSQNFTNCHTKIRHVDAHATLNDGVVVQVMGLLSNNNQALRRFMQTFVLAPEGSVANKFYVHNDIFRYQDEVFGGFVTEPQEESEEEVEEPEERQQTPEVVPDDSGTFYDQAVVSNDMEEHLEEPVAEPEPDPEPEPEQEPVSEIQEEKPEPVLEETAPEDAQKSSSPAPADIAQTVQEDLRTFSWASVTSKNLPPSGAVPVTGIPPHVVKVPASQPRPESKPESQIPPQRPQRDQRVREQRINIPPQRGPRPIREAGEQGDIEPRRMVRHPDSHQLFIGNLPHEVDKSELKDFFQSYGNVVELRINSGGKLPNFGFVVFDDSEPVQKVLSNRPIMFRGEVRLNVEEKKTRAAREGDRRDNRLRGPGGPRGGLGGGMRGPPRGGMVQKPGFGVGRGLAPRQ
Method: RNA Bind-n-Seq
Molecule type: RNA
Sample: in vitro
Tested at: 1 µM
Notes: whole 134-nt RNA, ends assumed
With: 150 mM KCl
Baseline: input library
Direction: higher = stronger binding
All sequences stand within: GGGAGUUCUACAGUCCGACGAUC … UGGAAUUCUCGGGUGUCAAGG
| Oligonucleotide | log2 enrichment |
| --- | --- |
| UAACUUUAGAGGAGGAUCUGAUGGAUAUGGCAGUGGAAGUGGAUUUGGGGAUGGCUAUAAUGGGUAUGGAGGAGGACCUGGAGGUGGCAA | -1.16 |
| UGGGAGGUGGAUUUUGUUUAUUUUUUUAGCUCACUUCCAGGGGUGGGAAUUUUUUUUUAAUAUGUGUCAUGAAUAAAGUUGUUUUUGAAA | 3.34 |
| UCCUGUGCUACACAUCGUAUGUACCGAAUCAAAUUUUUUUAAAUUUUUUUAAACCCAAAAAAGUAUUAUGUUACGCCGUUCGGAUCUGCA | -1.17 |
| UGGCCCUGGUGGCUUGCGGGGAGGAAGAGGUGGCCUCAUGGAUCGUGGUGGUCCCGGUGGAAUGUUCAGAGGUGGCCGUGGUGGAGACAG | 2.11 |
| AAGUCCUGUGCUACACAUCGUAUGUACCGAAUCGGGAGGGAAAAAAAGGGAAAGGGAAAGUAUUAUGUUACGCCGUUCGGAUCUGCACUU | 0.474 |
| UCCUGUGCUACACAUCGUAUGUACCGAAUCAAACCCCCCCAAAUUUAAAUUUUUUUAAAAAAGUAUUAUGUUACGCCGUUCGGAUCUGCA | -0.415 |
| UGGCCCUGGUGGCAUGCGGGGAGGAAGAGGUGGCCUCAUGGAUCGUGGUGGUCGCGGUGGAAUGUUCAGAGGUGGCCGUGGUGGAGACAG | 2.25 |
| UAACUUUAGAGGAGGAUCUGAUGGAUAUGGCAGUGGACGUGGAUUCGGGGAUGGCUAUAAUGGGUAUGGAGGAGGACCUGGAGGUGGCAA | -1.03 |
| UAACUUUAGAGGAGGAUCUGAUGGAUAUGGCAGUGGACGUGGAUUUGGGGAUGGCUACAAUGGGUAUGGAGGAGGACCUGGAGGUGGCAA | -0.921 |
| CCUCAAGUCCUGUGCUACACAUCGUAUGUACCGAAUCGGUUGGUUGGUUGGGGAAAGUAUUAUGUUACGCCGUUCGGAUCUGCACUUCCA | -1.06 |

Block 6
Target: JUN, bZIP domain (human)
Method: DHFR protein complementation
Sample: yeast
Notes: single substitutions, most at no-binding floor
Baseline: wild-type JUN-FOS pair
Direction: higher = stronger binding
Parent: JUN, bZIP domain (human); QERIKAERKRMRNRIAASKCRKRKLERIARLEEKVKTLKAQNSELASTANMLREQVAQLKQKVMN; partner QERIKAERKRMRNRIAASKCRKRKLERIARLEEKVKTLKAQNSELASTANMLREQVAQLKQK
| Change | binding fitness |
| --- | --- |
| T37H | -0.0919 natural log |
| M51Y | -0.205 natural log |
| A40V | -0.34 natural log |
| L59H | -1.08 natural log |
| K34V | -0.163 natural log |
| S43L | -0.184 natural log |
| K39H | -0.328 natural log |
| Q55H | -0.556 natural log |
| T37Y | -0.203 natural log |
| S43A | 0.00779 natural log |
| S43G | -0.299 natural log |
| L38Q | -1.19 natural log |
| E33H | -0.447 natural log |
| E33K | -0.351 natural log |
| Q41A | -0.273 natural log |
| E44I | -0.298 natural log |
| S43W | -0.464 natural log |
| E44T | -0.48 natural log |

Further values, each from its own experiment
| Substance | target | test | test system | conditions | scale | quantity | result |
| --- | --- | --- | --- | --- | --- | --- | --- |
| PhoQ, residues 284 288 289 292 302 303 WSHMKI | PhoP, residues 12 14 15 18 19 VQALL (Escherichia coli, UniProt P23836) | Sort-seq, measured: YFP reporter | E. coli | PhoQ-PhoP variant library, with: 10 µM Mg2+ | baseline: high Mg2+ state, higher = stronger signaling | fold induction | 8.22 |
